Measurements from different studies.
Numbers after ± are the reported error.
Beta-lactamase CTX-M-14: Beta-lactamase CTX-M-14 (Escherichia coli, UniProt Q9L5C7)
Hypoxanthine-guanine-xanthine phosphoribosyltransferase: Hypoxanthine-guanine-xanthine phosphoribosyltransferase (Plasmodium falciparum, UniProt P20035)
Chain of UniProt P20035 (whole entry, looked up): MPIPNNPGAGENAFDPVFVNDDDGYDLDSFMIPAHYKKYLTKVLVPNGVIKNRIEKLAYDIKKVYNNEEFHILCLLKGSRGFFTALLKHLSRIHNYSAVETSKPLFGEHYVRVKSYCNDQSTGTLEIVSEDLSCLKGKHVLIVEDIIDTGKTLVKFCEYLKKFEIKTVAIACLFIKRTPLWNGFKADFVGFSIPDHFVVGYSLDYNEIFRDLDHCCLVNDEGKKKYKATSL
5-hydroxytryptamine receptor 2A: 5-hydroxytryptamine receptor 2A (Rattus norvegicus, UniProt P14842)
Chain of UniProt P14842 (whole entry, looked up): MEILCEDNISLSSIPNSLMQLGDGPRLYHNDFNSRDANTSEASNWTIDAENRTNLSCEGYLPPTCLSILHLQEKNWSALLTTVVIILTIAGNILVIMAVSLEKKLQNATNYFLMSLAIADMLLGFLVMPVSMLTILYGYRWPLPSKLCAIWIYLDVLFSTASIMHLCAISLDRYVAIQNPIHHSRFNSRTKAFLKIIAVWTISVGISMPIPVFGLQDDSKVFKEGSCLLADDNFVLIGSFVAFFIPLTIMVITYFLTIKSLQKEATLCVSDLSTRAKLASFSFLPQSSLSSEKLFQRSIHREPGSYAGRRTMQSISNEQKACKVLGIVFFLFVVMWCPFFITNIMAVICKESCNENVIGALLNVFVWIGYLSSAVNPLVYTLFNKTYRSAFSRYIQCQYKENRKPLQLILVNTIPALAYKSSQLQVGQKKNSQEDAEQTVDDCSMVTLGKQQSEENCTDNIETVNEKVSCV
CHRM4: Muscarinic acetylcholine receptor M4 (CHRM4, Homo sapiens, UniProt P08173)
Chain of UniProt P08173 (whole entry, looked up): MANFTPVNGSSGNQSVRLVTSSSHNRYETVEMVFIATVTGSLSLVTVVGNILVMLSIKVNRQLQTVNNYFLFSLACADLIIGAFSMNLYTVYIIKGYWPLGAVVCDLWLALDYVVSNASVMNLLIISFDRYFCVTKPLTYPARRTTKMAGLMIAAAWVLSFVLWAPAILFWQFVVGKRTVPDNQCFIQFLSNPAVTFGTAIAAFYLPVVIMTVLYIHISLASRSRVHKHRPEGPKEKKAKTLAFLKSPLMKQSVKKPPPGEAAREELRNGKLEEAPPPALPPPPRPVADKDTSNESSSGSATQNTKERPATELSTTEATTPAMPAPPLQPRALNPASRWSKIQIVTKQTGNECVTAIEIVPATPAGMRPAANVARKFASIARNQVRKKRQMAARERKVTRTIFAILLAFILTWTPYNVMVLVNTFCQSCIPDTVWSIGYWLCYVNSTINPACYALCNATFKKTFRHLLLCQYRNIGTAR
MAPK8: Mitogen-activated protein kinase 8 (MAPK8, Homo sapiens, UniProt P45983)
Chain of UniProt P45983 (whole entry, looked up): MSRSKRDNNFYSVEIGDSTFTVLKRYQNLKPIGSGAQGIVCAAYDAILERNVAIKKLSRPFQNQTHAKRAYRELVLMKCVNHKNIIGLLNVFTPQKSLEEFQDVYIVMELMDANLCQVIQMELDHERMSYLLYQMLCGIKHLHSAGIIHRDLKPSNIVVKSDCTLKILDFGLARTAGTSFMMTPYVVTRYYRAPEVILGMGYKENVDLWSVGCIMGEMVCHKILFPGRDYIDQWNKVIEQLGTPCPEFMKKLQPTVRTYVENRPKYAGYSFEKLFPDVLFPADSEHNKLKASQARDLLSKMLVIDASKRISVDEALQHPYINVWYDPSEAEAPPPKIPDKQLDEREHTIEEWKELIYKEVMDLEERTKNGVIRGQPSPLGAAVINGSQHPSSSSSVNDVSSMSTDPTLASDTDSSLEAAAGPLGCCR
Htr1a: 5-hydroxytryptamine receptor 1A (Htr1a, Rattus norvegicus, UniProt P19327)
Chain of UniProt P19327 (whole entry, looked up): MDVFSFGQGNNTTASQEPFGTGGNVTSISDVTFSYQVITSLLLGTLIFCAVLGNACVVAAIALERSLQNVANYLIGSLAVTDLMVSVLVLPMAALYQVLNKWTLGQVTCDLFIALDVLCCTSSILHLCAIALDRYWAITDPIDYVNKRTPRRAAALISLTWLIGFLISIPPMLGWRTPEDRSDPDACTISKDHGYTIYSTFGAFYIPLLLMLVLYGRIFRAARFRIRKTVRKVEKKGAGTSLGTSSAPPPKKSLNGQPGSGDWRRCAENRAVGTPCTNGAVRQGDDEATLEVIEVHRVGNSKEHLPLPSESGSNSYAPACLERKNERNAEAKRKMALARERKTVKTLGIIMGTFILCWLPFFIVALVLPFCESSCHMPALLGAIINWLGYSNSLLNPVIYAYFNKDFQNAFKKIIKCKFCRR
CASP1: Caspase-1 (CASP1, Homo sapiens, UniProt P29466)
Chain of UniProt P29466 (whole entry, looked up): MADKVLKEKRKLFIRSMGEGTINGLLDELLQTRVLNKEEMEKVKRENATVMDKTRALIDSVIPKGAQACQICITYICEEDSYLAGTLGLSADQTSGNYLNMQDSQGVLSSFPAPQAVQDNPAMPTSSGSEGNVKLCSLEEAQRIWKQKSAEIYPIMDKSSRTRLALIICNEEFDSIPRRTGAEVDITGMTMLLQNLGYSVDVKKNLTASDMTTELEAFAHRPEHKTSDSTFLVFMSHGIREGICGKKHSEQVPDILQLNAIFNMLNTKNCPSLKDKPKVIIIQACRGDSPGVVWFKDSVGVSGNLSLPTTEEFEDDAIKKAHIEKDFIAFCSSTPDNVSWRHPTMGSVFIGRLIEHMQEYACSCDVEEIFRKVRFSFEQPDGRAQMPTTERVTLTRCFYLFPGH
Chain of UniProt P25021 (whole entry, looked up): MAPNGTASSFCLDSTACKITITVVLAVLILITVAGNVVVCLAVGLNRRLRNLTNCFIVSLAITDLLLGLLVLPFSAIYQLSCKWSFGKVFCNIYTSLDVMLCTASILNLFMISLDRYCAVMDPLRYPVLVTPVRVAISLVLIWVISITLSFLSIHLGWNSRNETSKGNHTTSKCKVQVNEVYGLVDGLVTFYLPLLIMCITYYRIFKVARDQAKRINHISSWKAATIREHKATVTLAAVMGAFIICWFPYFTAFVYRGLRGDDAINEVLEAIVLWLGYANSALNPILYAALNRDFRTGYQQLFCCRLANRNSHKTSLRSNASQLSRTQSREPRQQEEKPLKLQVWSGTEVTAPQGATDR
Chain of UniProt P25103 (whole entry, looked up): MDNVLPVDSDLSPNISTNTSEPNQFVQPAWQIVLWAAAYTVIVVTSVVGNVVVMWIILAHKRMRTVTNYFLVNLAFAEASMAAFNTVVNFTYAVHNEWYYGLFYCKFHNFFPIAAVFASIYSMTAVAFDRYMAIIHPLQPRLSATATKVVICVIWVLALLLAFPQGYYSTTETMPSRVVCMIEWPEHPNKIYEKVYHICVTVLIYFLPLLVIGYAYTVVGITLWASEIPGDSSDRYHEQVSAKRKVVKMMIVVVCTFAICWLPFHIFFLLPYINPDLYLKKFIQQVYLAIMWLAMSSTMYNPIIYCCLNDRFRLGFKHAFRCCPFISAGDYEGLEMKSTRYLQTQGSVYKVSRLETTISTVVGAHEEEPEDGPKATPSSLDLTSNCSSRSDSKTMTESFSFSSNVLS
Chain of UniProt P15684 (whole entry, looked up): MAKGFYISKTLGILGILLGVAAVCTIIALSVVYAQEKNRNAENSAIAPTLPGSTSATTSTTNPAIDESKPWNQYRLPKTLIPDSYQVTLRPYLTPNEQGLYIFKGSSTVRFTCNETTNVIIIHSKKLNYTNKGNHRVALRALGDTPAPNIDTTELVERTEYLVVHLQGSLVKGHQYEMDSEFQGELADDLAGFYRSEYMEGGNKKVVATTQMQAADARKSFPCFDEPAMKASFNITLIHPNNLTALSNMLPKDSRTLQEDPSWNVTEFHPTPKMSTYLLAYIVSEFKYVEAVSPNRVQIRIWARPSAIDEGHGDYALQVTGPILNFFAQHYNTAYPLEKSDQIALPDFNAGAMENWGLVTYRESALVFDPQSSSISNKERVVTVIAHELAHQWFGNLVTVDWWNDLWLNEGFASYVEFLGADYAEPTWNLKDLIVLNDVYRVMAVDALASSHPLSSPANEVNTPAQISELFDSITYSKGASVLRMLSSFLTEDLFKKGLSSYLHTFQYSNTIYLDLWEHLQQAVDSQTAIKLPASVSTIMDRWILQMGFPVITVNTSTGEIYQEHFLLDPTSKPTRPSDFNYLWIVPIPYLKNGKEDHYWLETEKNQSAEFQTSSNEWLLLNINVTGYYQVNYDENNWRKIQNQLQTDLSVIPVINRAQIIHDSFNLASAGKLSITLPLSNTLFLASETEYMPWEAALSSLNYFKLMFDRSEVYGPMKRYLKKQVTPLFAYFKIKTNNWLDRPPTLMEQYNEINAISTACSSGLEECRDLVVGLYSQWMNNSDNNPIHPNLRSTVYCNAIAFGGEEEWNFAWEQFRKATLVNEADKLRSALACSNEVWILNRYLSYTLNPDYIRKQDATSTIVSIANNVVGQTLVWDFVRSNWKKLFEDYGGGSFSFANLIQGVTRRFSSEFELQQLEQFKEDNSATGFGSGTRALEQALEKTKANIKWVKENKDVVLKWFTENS
Chain of UniProt Q12884 (whole entry, looked up): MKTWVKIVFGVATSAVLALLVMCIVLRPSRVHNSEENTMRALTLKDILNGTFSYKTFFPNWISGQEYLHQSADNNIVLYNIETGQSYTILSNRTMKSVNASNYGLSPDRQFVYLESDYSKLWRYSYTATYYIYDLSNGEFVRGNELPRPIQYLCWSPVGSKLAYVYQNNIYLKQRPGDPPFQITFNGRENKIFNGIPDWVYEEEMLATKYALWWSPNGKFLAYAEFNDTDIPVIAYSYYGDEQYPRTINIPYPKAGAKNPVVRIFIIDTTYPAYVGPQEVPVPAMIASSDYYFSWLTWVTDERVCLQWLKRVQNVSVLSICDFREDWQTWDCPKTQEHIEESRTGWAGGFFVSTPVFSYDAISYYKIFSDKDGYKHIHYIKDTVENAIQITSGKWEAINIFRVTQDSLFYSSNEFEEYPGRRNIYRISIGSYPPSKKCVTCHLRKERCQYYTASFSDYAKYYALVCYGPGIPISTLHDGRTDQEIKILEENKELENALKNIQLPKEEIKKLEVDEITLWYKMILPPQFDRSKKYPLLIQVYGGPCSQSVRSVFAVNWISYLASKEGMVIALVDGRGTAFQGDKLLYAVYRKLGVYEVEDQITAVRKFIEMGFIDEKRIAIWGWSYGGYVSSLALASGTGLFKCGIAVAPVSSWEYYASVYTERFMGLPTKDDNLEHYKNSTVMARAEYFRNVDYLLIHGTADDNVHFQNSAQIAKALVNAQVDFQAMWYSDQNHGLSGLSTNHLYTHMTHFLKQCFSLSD

| Structure (SMILES) | target | test | test system | conditions | Ki |
| --- | --- | --- | --- | --- | --- |
| O=C(Nc1cccc(-c2nn[nH]n2)c1)c1cc(-c2ccsc2)cc(C(F)(F)F)c1 | Beta-lactamase CTX-M-14 | enzyme activity, inhibitor, absorbance | – | pH 7 | 31.1 µM |
| CC[C@H](C)[C@H](NC(=O)CN)C(=O)N[C@H](C(=O)N[C@@H](CC(N)=O)C(=O)N[C@H](C(=O)N[C@@H](CC(C)C)C(=O)N[C@@H](CCC(N)=O)C(=O)N[C@@H](CCCCN)C(=O)N[C@@H](Cc1ccc(O)cc1)C(=O)N[C@@H](Cc1ccc(O)cc1)C(=O)N[C@@H](CO)C(=O)N[C@@H](CCCNC(=N)N)C(=O)N[C@H](C(=O)N[C@@H](CCC(N)=O)C(=O)NCC(=O)NCC(=O)N[C@@H](CCC(N)=O)C(=O)N[C@@H](CO)C(=O)N[C@@H](C)C(=O)N[C@H](C(=O)N[C@@H](CC(C)C)C(=O)N[C@@H](CO)C(=O)N[C@@H](CO)C(=O)N[C@@H](CC(C)C)C(=O)N1CCC[C@H]1C(=O)N[C@@H](CCC(N)=O)C(=O)N[C@@H](CCC(=O)O)C(=O)N[C@@H](CCC(=O)O)C(=O)N[C@@H](CCC(N)=O)C(=O)N[C@H](C(=O)NCC(=O)N[C@@H](CCCCN)C(=O)N[C@@H](CO)C(=O)N[C@@H](CO)C(=O)N[C@H](C(=O)N[C@@H](CCCNC(=N)N)C(=O)NCC(=O)N[C@@H](CCCNC(=N)N)C(=O)N[C@@H](CCCCN)C(=O)N[C@@H](CO)C(=O)N[C@@H](CO)C(=O)N[C@@H](CCC(N)=O)C(=O)N[C@@H](CCC(N)=O)C(=O)N[C@@H](CCC(N)=O)C(=O)N[C@@H](CCC(N)=O)C(N)=O)[C@@H](C)O)[C@@H](C)CC)C(C)C)C(C)C)[C@@H](C)O)[C@@H](C)CC | MC4R (Homo sapiens, UniProt P32245) | – | HEK-293T transfected | 2 h, 37 °C, added: Eu-NDP-MSH | > 5 µM |
| Cc1ccccc1-c1cc(N2CCCCC2)ccc1N(C)C(=O)C(C)(C)c1cc(C(F)(F)F)cc(C(F)(F)F)c1 | TACR1 (Homo sapiens, UniProt P25103) | cell-free assay | – | pH 6 | 0.036 µM |
| O=c1[nH]cnc2c(CN[C@@H](CO)CCP(=O)(O)O)c[nH]c12 | Hypoxanthine-guanine-xanthine phosphoribosyltransferase | enzyme activity, inhibitor | – | pH 7.4 | 0.023 µM |
| COc1cc(CN2CCOCC2)ccc1OCCCN1CCN(c2cccc3sccc23)CC1 | 5-hydroxytryptamine receptor 2A | cell-free assay | – | – | 0.118 µM |
| O=C(Nc1cccc(-c2nn[nH]n2)c1)c1cc(-c2nn[nH]n2)cc(C(F)(F)F)c1 | Beta-lactamase CTX-M-14 | enzyme activity, inhibitor, absorbance | – | pH 7 | 82 µM |
| CCCCCCOc1ccc(C(=O)OCCN2CC=CCC2)cc1 | CHRM4 | ligand displacement, radioligand | – | cell membranes | 9.12 µM |
| COC(=O)[C@@]1(C)C=C(C(=O)OC(C)(C)C)C(=O)CC1 | MAPK8 | ligand displacement, FP | – | – | 23.6 µM |
| COc1cc(CN2CCCC2)ccc1OCCN1CCN(c2cccc3sccc23)CC1 | Htr1a | cell-free assay, radioligand | – | – | 0.355 µM |
| CCC(=O)NCc1cc(C(=O)NCCCC(=O)NCCCCCOc2nsnc2C2=CCCN(C)C2)cc(C(=O)NCCN2CCN(CCCCC3CCN(CC(=O)N4c5ccccc5NC(=O)c5ccccc54)CC3)CC2)c1 | CHRM4 | ligand displacement, radioligand | – | – | 0.00135 µM |
| C[C@@H]1O[C@H](OP(=O)(O)OP(=O)(O)OC[C@H]2O[C@@H](n3cnc4c(=O)[nH]c(N)nc43)[C@H](O)[C@@H]2O)[C@@H](F)[C@H](O)[C@@H]1O | FUT6 (Homo sapiens, UniProt P51993) | enzyme activity, inhibitor | – | – | 26.3 µM |
| CC(=O)N[C@@H](C)C(=O)N[C@@H](CC(=O)O)C(=O)N[C@@H](CCCNC(=N)N)C(=O)N[C@H](C(=O)N[C@H](C=O)CC(=O)O)[C@@H](C)O | CASP1 | enzyme activity, inhibitor, fluorescence | – | pH 7 | 1.48 µM |
| CC(=O)NCC1OC(OP(=O)(O)OP(=O)(O)OCC2OC(n3cnc4c(=O)[nH]c(N)nc43)C(O)C2O)C(F)C(O)C1O (stereo not shown) | FUT9 (Homo sapiens, UniProt Q9Y231) | enzyme activity, inhibitor | – | – | 21.5 µM |
| COc1ccc(CN(C(=O)c2sc3ccccc3c2Cl)C2CCC(N)CC2)cc1-c1ccc(C#N)cc1 (stereo not shown) | Protein smoothened (Smo, Mus musculus, UniProt P56726) | ligand displacement, radioligand | – | cell membranes | 0.096 µM |
| CCCCc1ccc(N2C(=O)/C(=N\NC(=N)N)c3cc(C)ccc32)cc1 | mrcB (Escherichia coli K-12, UniProt P02919) | transglycosylation activity, inhibitor | – | added: dansyl-lipid II | 3.2 µM |
| CC(=O)NCC(=O)N[C@@H](CCC(=O)O)C(=O)N[C@@H](CO)C(=O)N1CCC[C@H]1C(=O)N[C@H](C=O)CC(=O)O | CASP1 | enzyme activity, inhibitor, fluorescence | – | pH 7 | 0.302 µM |

| Structure (SMILES) | target | test | test system | conditions | Ki |
| --- | --- | --- | --- | --- | --- |
| N=C(N)NCCC[C@H](NC(=O)[C@@H](N)Cc1ccccc1)C(=O)NCCOCCOCC(=O)NCC(=O)N1CCCC1 | FAP (Homo sapiens, UniProt Q12884) | enzyme activity, inhibitor, fluorescence | – | pH 7.5 | 67.7 µM |
| Cc1cc(CN2CCCC2)ccc1OCCCN1CCN(c2cccc3sccc23)CC1 | 5-hydroxytryptamine receptor 2A | cell-free assay | – | – | 0.206 µM |
| O=C(Nc1cccc(-c2nn[nH]n2)c1)c1cc(-c2ccncn2)cc(C(F)(F)F)c1 | Beta-lactamase CTX-M-14 | enzyme activity, inhibitor, absorbance | – | pH 7 | 18.9 µM |
| Cc1cc(CN2CCOCC2)ccc1OCCCN1CCN(c2cccc3sccc23)CC1 | 5-hydroxytryptamine receptor 2A | cell-free assay | – | – | 0.0124 µM |
| COC(=O)C1(C)C=C(C(=O)OCc2ccccc2)C(=O)CC1 (stereo not shown) | MAPK8 | ligand displacement, FP | – | – | 4 µM |
| C[C@H](CCC(=O)O)[C@H]1CC[C@H]2[C@@H]3[C@H](OC(=O)c4ccccc4)C[C@H]4C[C@H](O)CC[C@]4(C)[C@H]3CC[C@]12C | SLC10A1 (Homo sapiens, UniProt Q14973) | transporter uptake, inhibitor, radiometric | – | – | 15.4 µM |
| CCCCCCCCCCCCCC[C@@H](O)[C@@H](O)[C@H](CO[C@H]1O[C@H](CO)[C@H](O)[C@H](O)[C@H]1O)NC(=O)CCCCCCCCCCc1ccc(OC)cc1 | Cd1d1 (Mus musculus, UniProt P11609) | competitive binding on microarray | – | added: surface-printed ligand | 0.66 ± 0.13 µM |
| CC(C)C[C@@H](NC(=O)[C@@H](CCCCN)NC(=O)CNC(=O)CNC(=O)[C@@H]1CSSC[C@H](N)C(=O)N2CCC[C@H]2C(=O)N[C@@H](CC(N)=O)C(=O)NCC(=O)N[C@@H](CCCNC(=N)N)C(=O)N1)C(=O)N[C@H](C)C(=O)N[C@H](CCCCN)C(=O)N[C@H](CC(C)C)C(=O)N[C@H](C)C(=O)N[C@H](CCCCN)C(=O)N[C@H](CCCCN)C(=O)N[C@H](CC(C)C)C(=O)N[C@H](C)C(=O)N[C@H](CCCCN)C(=O)N[C@H](CC(C)C)C(=O)N[C@H](C)C(=O)N[C@H](CCCCN)C(=O)O | Aminopeptidase N (Rattus norvegicus, UniProt P15684) | enzyme activity, competitive inhibitor | – | added: L-leucine p-nitroanilide | 7 ± 3 µM |
| Fc1cc(OCCCN2CCN(c3cccc4sccc34)CC2)ccc1CN1CCOCC1 | Htr1a | cell-free assay, radioligand | – | – | 0.0117 µM |
| Nc1nc2c([C@@H]3N[C@H](COP(=O)(O)O)[C@@H](O)[C@H]3O)c[nH]c2c(=O)[nH]1 | Hypoxanthine-guanine-xanthine phosphoribosyltransferase | enzyme activity, inhibitor | – | pH 7.4 | 0.014 µM |
| COc1ccc(/C=C/c2cc(O)cc(O)c2)cc1O | XDH (Bos taurus, UniProt P80457) | uric acid formation, inhibitor | – | pH 10.0, 25 °C, added: xanthine | 3.5 ± 0.2 µM |
| O=C(OC1CCN(CCOCCOCCN2CCC(OC(=O)C(c3ccccc3)c3ccccc3)CC2)CC1)C(c1ccccc1)c1ccccc1 | CHRM4 | ligand displacement, radioligand | – | – | 2.34 µM |
| N=C(N)NCCCc1c[nH]cn1 | HRH2 (Homo sapiens, UniProt P25021) | ligand displacement, radioligand | – | cell membranes | 4.07 µM |
| O=C(Nc1cccc(-c2nn[nH]n2)c1)c1cc(-n2ccnc2)cc(C(F)(F)F)c1 | Beta-lactamase CTX-M-14 | enzyme activity, inhibitor, absorbance | – | pH 7 | 30.5 µM |
| NCc1cc(C(=O)NCCN2CCN(CCCCC3CCN(CCCN4C(=O)CCc5ccccc54)CC3)CC2)cc(C(=O)NCCN2CCN(CCCCC3CCN(CC(=O)N4c5ccccc5NC(=O)c5ccccc54)CC3)CC2)c1 | CHRM4 | ligand displacement, radioligand | – | – | 0.00407 µM |
